Assay results of several laboratories.
A part holds a random share of what one study measured.

Block 1
Target: RNA binding protein fox-1 homolog 2, RRM domain, GST-SBP tag (RBFOX2, Homo sapiens, UniProt O43251-10, residues 100-194)
Technique: RNA Bind-n-Seq
Molecule type: RNA
Medium: in vitro
Concentration: 365 nM
Setting: natural RNA segment, single round, ends assumed
Relative to: no-protein control
Direction: higher = stronger binding
Quantity: RBNS enrichment (R)
Target sequence (chain): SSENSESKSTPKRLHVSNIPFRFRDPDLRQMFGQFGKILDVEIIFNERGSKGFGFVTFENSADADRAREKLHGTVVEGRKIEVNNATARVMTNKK
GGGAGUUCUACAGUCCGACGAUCGAAUGAAUCCAGGGUUUUUCUACUGUUCGUCUGUCCAGGGGUCCCUGAGAUCUGGGCUCCCUUACAUUCUAGACCUAUGUCCCCCCCCAUGGAAGAGAAGAGAAGAAUGAUGGAAUUCUCGGGUGCCAA: 0.736
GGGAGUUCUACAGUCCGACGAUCUCAAAGAAACCCAGCUAAGUAAGCAACAUAAAGCCUGUUGUGUCAGGUCCUGCAGGUCGAUGUGUGAGUCAGGAAACACUGCAGGGAAAUAGACCUUUCCUUCCGUACCUUGGAAUUCUCGGGUGCCAA: 0.571
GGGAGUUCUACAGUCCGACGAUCAGGAAGGAGCUGCCUUAAGCACUUUAGAAAAAGAAUUUGCUACAAUUCAUUUGACUCAGCUGAUUGUGUCACAUCUUUUAAAUACUGGUAAAUAUGGAUAUACCAAGUAUUGGAAUUCUCGGGUGCCAA: 0.601
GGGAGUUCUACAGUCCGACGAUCUGCUCUCUCCGCUCUGAGUGGCCCUCGGGGAACCACCUGCUUUCCAUCUGUGGGGUGGGGCGCUCGCUCCGAGUAUGUGUGGCAAGGUGGAGGCCACAAUGCCAAGGUUCUGGAAUUCUCGGGUGCCAA: 0.494
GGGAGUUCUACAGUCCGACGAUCUCUGCCCUCUCUUUAAUUUUGCCUCUUGAGGGGUAGCAGAUGUGUCAGUGCAUUUUAUUACUUGCUGAAACAUUCAGGCUUACAUUUCUUAUUAGUUUAGUAUUUUAAAAUGGAAUUCUCGGGUGCCAA: 0.63
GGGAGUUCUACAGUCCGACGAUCGCUCCAGGCAGGACAUCAGACUGUCUGGGGAGUUGGCCCUGGGCUUCUGUGUUGUGUGCAGAGACUGCACAGUAAAACAGUCACUUUUGCCAACAAGAAUGUGUGGCGCCUGGAAUUCUCGGGUGCCAA: 0.399
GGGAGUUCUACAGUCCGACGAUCAUUUCUAUGUGUAUGCAAGUACAAGUAUAUAAUAUGUCACCUGGCACAUUCAUUUUCUCAGUUGAAGAAGAGAAAAUUUGAAAAUGUCCUUAUGCUUUUAGAGUUGCAACUGGAAUUCUCGGGUGCCAA: 0.54
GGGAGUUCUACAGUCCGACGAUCAAAGUUACUAGUAAUGCUUUACUAAGUAGUGCAAUGAAUUUUUAUUUUUAAUCCCUGUGCCCAAUUUUGGAGUUGAGAGGGUUGUUGGUAAUAAAUGUAUGAUGUACACUUGGAAUUCUCGGGUGCCAA: 0.476
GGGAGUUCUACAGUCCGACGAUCCAUUUUGUACAUUCAAUAGAGGAAAGACUAACAUAUGCACUUUAUCUCAAGAUCUUCCAGUGCAUAUACACUCACGUGGGAGAGCACUUCAUAUCCACCAAGCAGACAUAUGGAAUUCUCGGGUGCCAA: 0.308
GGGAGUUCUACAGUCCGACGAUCCCUGGGUUUUUCUUGGAAGAAAGGACUCUAGGGUGGAUGGUACCAGGCCUUCAGGGUUAGAUCAUCUGUCAAGUGUCACCGAUGGGGACUUCUCAUGACCAGAGGGCUCUUGGAAUUCUCGGGUGCCAA: 0.24
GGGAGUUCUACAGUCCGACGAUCAAUUCUUUUAACAGCCUGUCCUCCCGGCAUCAGGAGUCAUUGAACAAUCAUGGAUUGUUGUGUUUGGGAUUUUUUUUUUUUUGGCUUUGUUUUUGGUUUUUGUGUGUGUGUGGAAUUCUCGGGUGCCAA: 1.12
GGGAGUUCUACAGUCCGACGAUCUUGAAAUAGUCUGUGUGAAGGUGAAAGUGCAGUUCAGUAAUAAACUGUGUUUACUCAGUGAACAAAGGCCUGGGCUCUUGUGUGCUCCGGGAUGGGGAAAGGAGGGGCCGUGGAAUUCUCGGGUGCCAA: 0.43

Block 2
Target: Interferon regulatory factor 5, full length, phosphomimetic (IRF5, Homo sapiens, UniProt Q13568-2, residues 1-514, S451D/S453D/S456D/S462D)
Technique: protein-binding microarray
Molecule type: double-stranded DNA, one strand shown
Medium: in vitro
Concentration: 940 nM top
Setting: 60-bp whole probe
Together with: salmon DNA 0.4 mg/ml
Relative to: random background probes
Direction: higher = stronger binding
Quantity: fitted relative affinity
All sequences stand within: GCCTAGCAC … GTCTTGATTCGCTTGACGCTGCTG
TTAGGACTGGGGCTCGGTTAGTGCTAG: -0.345 z-score
ATAGGACTGCTACTGCTTTAGTGCTAG: -0.149 z-score
TCAGGAAACTTAAACTAGACTGTGCTA: -0.0268 z-score
TTAGATAGCAGTATCGATTAGTGCTAG: 3.38 z-score
TGAGATTTCAGTTTCGATTAGTGCTAG: 9.04 z-score
TTTGATTTCAGTTCCGATTAGTGCTAG: 2.57 z-score
TTAGATATCAGTCTCTATTAGTGCTAG: 0.733 z-score
GACGGTATCGGACTGGGGGCGTGCTAG: 4.01 z-score
TCAATTTTGTGTCTGGGACTGTGCTAG: -0.261 z-score
AGGACCATCCCTTATAAATAGGTGCTA: 0.529 z-score
GACGATAACAGTTTCGAGACGTGCTAG: 3.83 z-score
CATTTTCTTTAACTCATTCTGTGCTAG: 1.33 z-score
GACGGTTTCGGTCTCGGGCCGTGCTAG: 12.8 z-score
TCATTTTGGTTTTCTCTAACTGTGCTA: 1.51 z-score
TTAGGTTCCCTTTTCCTGTAGTGCTAG: 0.475 z-score
GAGGGTCTCCTTCTCCTGACGTGCTAG: 0.241 z-score
CTTAGTTTGTATATATTTTAGTGCTAG: 0.458 z-score
TACGGTCTCCTTCTCCTGACGTGCTAG: 0.421 z-score
TTACGACTGGGTATCGGTTAGTGCTAG: 4.04 z-score
TCAACTCCCTCTCTGGCACTGTGCTAG: 0.316 z-score
TCAAATTTTTGCATCGTACTGTGCTAG: 0.0894 z-score
GACGGTATCGGTCTCGGAACGTGCTAG: 8.66 z-score
TTAGGATCCGGTTTCGGTTAGTGCTAG: 8.26 z-score
TTGCCTTTTGCTTTACTGATGTGCTAG: 1.08 z-score

Block 3
Target: TAR DNA-binding protein 43, full length, His tag (TARDBP, Homo sapiens, UniProt Q13148, residues 1-414)
Technique: RNA Bind-n-Seq
Molecule type: RNA
Medium: in vitro
Concentration: 20 nM
Setting: 6-mer, flanks averaged, single round
Together with: 150 mM KCl
Relative to: input library
Direction: higher = stronger binding
Quantity: 6-mer enrichment (R)
UUGCGC: 0.791
GGUCCU: 0.862
CUGUAG: 0.931
CUAGGC: 0.823
UUAGAG: 0.88
UUAGUC: 0.577
CUAGUC: 0.585
AUCUUU: 0.603
ACUCAC: 0.585
UCUCCG: 0.605
ACAAGU: 0.693
AAGGUU: 0.676
AUACGC: 0.648
GUGGAG: 3.56
GGGCGA: 3.91
ACAAUC: 0.593
UACUUU: 0.602
CCAACU: 0.615
CACUGA: 0.645
UCGUCG: 0.777
UGUCAU: 0.611
AUACCU: 0.574
AAACCG: 0.636
AACACC: 0.66
CGCUGU: 0.764

Block 4
Target: Histone acetyltransferase KAT6A, winged helix 2, GST fusion (KAT6A, Homo sapiens, UniProt Q92794, residues 85-181)
Technique: protein binding microarray
Molecule type: double-stranded DNA, one strand shown
Medium: in vitro
Concentration: not given
Setting: 8-mer, flanks averaged, mean of 2 arrays, mostly near background
Relative to: not given
Direction: higher = stronger binding
Quantity: E-score
Target sequence (chain): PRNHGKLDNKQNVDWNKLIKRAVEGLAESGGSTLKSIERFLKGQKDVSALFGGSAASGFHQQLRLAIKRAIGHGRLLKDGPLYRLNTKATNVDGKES
ATCGTTAA: -0.119
ATGGTGGG: 0.0434
CCTCTCAG: -0.119
AAAGATTG: -0.188
CATCTGCG: 0.172
ATAGGGCA: -0.166
ACGACTCG: -0.158
AGCTTTCA: -0.0888
AGAAAGTG: -0.0721
AGAACCTC: 0.0425
ACGCGCAA: 0.153
ACATTCAT: -0.204
ATAACTAG: -0.126
GAAGGACA: 0.0855
TGGGTGAA: 0.142
GCCACTAA: 0.0558
GCGTATCC: 0.0166
CGCAGTCA: -0.0317
AGCCTATA: -0.0787
CTAGCAAC: 0.112
GGAGGTTA: -0.192
AGTTCGGG: 0.174
CAGTCTTC: -0.104
ATAAGTGA: -0.0933
CTTGGTGA: 0.0112

Block 5
Target: Sal-like protein 4, full length isoform A (SALL4, Homo sapiens, UniProt Q9UJQ4, residues 1-1053)
UniProt Q9UJQ4, sequence (whole entry, looked up): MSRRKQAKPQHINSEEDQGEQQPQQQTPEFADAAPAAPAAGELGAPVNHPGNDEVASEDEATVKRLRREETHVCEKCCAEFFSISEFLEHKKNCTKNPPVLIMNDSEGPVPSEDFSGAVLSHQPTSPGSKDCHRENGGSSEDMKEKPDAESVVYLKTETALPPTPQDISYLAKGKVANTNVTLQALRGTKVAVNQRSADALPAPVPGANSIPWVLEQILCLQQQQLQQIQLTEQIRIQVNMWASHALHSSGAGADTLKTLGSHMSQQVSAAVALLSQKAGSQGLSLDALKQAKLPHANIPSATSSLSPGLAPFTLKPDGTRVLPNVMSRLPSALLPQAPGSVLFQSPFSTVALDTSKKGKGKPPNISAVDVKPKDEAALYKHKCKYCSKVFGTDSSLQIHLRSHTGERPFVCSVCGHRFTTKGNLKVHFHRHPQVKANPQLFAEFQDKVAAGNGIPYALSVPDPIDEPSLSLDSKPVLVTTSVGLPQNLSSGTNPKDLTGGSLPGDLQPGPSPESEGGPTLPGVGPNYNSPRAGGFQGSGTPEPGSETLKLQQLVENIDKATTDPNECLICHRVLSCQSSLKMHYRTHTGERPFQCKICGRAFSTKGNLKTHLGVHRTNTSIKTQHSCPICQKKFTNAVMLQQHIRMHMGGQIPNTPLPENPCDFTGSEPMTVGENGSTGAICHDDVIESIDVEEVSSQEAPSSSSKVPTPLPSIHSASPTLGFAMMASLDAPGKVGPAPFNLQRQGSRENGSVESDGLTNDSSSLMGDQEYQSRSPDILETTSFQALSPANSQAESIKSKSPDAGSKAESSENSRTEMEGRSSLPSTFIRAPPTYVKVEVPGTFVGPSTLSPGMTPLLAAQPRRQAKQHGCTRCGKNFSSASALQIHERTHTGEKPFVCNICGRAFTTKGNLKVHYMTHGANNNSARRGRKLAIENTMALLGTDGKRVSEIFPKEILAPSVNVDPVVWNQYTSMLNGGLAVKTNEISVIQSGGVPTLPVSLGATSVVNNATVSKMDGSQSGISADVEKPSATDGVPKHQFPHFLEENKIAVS
Technique: universal PBM
Molecule type: double-stranded DNA, one strand shown
Medium: in vitro
Concentration: 600 nM
Setting: 8-mer, flanks averaged, mean of replicates
Direction: higher = stronger binding
Quantity: E-score
ATCAGTAA: 0.232
CTCCGAGA: -0.19
CCGACCGC: -0.257
GAAAAACA: 0.157
AAGATGGA: 0.024
CGCGCATA: 0.0153
ATTGTAAA: 0.321
CTAAACGC: -0.0629
GCTTTCGA: -0.152
CCGTTGAA: -0.0325
CACTGTGC: -0.126
CCCCATAC: -0.131
AAACGGGG: -0.197
GTAATCAA: 0.255
CTGTTGTC: -0.0999
ACTCGGGA: -0.133
AGATTCTA: 0.241
CGCGACTC: -0.177
